# Experimental data collected from several papers.
# Compare with care: the assays were run in different laboratories. “And” joins repeats or separate records; there may be more than shown. ± gives the spread as reported.
# CDC48A: CDC48A 1-463 (Arabidopsis thaliana, UniProt P54609)
# Sequence of UniProt P54609 (whole entry, looked up): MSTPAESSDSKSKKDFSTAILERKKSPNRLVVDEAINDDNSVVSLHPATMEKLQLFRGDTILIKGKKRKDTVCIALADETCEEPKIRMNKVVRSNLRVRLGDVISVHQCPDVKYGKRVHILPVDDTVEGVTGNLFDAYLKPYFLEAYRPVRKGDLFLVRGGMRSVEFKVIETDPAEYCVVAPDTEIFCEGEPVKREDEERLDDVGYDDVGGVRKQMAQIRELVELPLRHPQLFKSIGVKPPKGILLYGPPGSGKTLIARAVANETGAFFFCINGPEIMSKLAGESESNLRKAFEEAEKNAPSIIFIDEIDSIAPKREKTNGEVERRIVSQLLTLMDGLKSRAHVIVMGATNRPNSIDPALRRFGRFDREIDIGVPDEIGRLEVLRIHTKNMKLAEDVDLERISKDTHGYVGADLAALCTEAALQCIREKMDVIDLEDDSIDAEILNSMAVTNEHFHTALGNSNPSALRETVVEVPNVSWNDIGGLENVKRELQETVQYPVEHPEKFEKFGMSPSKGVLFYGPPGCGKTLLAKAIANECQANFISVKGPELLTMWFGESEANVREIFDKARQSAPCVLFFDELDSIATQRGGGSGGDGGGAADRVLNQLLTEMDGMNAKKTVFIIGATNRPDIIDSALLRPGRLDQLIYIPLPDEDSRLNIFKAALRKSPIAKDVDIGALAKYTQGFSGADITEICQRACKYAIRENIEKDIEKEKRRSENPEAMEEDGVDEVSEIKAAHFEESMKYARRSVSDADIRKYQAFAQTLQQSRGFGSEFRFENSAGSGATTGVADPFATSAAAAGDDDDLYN
# CALM1: CALM1 (Homo sapiens, UniProt P0DP23)
# T1: BPTF PHD domain Y23M; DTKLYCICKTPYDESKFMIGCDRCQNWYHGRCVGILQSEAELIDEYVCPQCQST
# B1: IGSF10 2234-2623 (Homo sapiens, UniProt Q6WRI0); sequence looked up; chain PPLINGLYTNRTVIKATAVRHSKKHFDCRAEGTPSPEVMWIMPDNIFLTAPYYGSRITVHKNGTLEIRNVRLSDSADFICVARNEGGESVLVVQLEVLEMLRRPTFRNPFNEKIVAQLGKSTALNCSVDGNPPPEIIWILPNGTRFSNGPQSYQYLIASNGSFIISKTTREDAGKYRCAARNKVGYIEKLVILEIGQKPVILTYAPGTVKGISGESLSLHCVSDGIPKPNIKWTMPSGYVVDRPQINGKYILHDNGTLVIKEATAYDRGNYICKAQNSVGHTLITVPVMIVAYPPRITNRPPRSIVTRTGAAFQLHCVALGVPKPEITWEMPDHSLLSTASKERTHGSEQLHLQGTLVIQNPQTSDSGIYKCTAKNPLGSDYAATYIQVI
# B2: SOX11 HMG box (UniProt P35716); chain IKRPMNAFMVWSKIERRKIMEQSPDMHNAEISKRLGKRWKMLKDSEKIPFIREAERLRLKHMADYPDYK
# B3: Cacna1c 1647-1777 (Mus musculus, UniProt Q01815); sequence looked up; chain NALSLQAGLRTLHDIGPEIRRAISGDLTAEEELDKAMKEAVSAASEDDIFRRAGGLFGNHVTYYQSDSRGNFPQTFATQRPLHINKTGNNQADTESPSHEKLVDSTFTPSSYSSTGSNANINNANNTALGR
# B4: C1S 438-688 S632A (Homo sapiens, UniProt P09871); chain IIGGSDADIKNFPWQVFFDNPWAGGALINEYWVLTAAHVVEGNREPTMYVGSTSVQTSRLAKSKMLTPEHVFIHPGWKLLEVPEGRTNFDNDIALVRLKDPVKMGPTVSPICLPGTSSDYNLMDGDLGLISGWGRTEKRDRAVRLKAARLPVAPLRKCKEVKVEKPTADAEAYVFTPNMICAGGEKGMDSCKGDAGGAFAVQDPNDKTKFYAAGLVSWGPQCGTYGLYTRVKNYVDWIMKTMQENSTPRED
# B5: PUX6 (Arabidopsis thaliana, UniProt F4IXN6); chain MDVNSPETTEKHLNEVSADAAKPNVPNPNDELLRRNPSSFPNLRIKIPTSSFSTFDGSSGYSPSRLQLRPPWPSLKRAAANPFSRQNKRRQGAGNVRIDDFSGGTGSDSDEAVEHYGGEENRAIERPEQSSRSMSEETVSSELEEEPQKVFTHTVTSWSNGFTVDDSSLKTLDDPENATFLEIISSMESPRELGQVRVQVKIISREEENYTESQAGSDSASTKPPPALAMRAKESAIERSEQSSKVLSGETDSAELQEQQQEDQPYEVVTYTVTIWRNGFTVDDDPFKSLDDPENAAFLEYMPEDNKFGVPTTTRSTSCSSQTHQELQTLAGSESTSTEPPLTTTQPPSMSSLVVDPAAPTTSIQLILADSTRIVTQFNTHHTIRDIRCFIDTSRPDGSKDYQLLIMGSPPTPLSDFDQTIEKAGIANSVLVQKF
# B6: EIF2AK3 105-403 (Homo sapiens, UniProt Q9NZJ5); chain LVIISTLDGRIAALDPENHGKKQWDLDVGSGSLVSSSLSKPEVFGNKMIIPSLDGALFQWDQDRESMETVPFTVESLLESSYKFGDDVVLVGGKSLTTYGLSAYSGKVRYICSALGCRQWDSDEMEQEEDILLLQRTQKTVRAVGPRSGNEKWNFSVGHFELRYIPDMETRAGFIESTFKPNENTEESKIISDVEEQEAAIMDIVIKVSVADWKVMAFSKKGGHLEWEYQFCTPIASAWLLKDGKVIPISLFDDTSYTSNDDVLEDEEDIVEAARGATENSVYLGMYRGQLYLQSSVRI
# B7: IgG; V domains shown; VH QVQLVQSGAEVKKPGASVKVSCKASGYTFTNYGLSWVRQAPGQGLEWMGWISANNGDTNYGQEFQGRVTMTTDTSTSTAYMELRSLRSDDTAVYYCARDSSSSWARWFFDLWGRGTLVTVSS; VL SYVLTQPPSVSVAPGKTARITCGGNIIGSKLVHWYQQKPGQAPVLVIYDDGDRPSGIPERFSGSNSGNTATLTISRVEAGDEADYYCQVWDTGSDPVVFGGGTKLTVL
# B8: CFH domains 1108-1231 L1189F (Homo sapiens, UniProt P08603); sequence looked up; chain KCGPPPPIDNGDITSFPLSVYAPASSVEYQCQNLYQLEGNKRITCRNGQWSEPPKCLHPCVISREIMENYNIALRWTAKQKFYSRTGESVEFVCKRGYRLSSRSHTLRTTCWDGKLEYPTCAKR
# B9: BRAF 442-724 (Homo sapiens, UniProt P15056); sequence looked up; chain GRRDSSDDWEIPDGQITVGQRIGSGSFGTVYKGKWHGDVAVKMLNVTAPTPQQLQAFKNEVGVLRKTRHVNILLFMGYSTKPQLAIVTQWCEGSSLYHHLHIIETKFEMIKLIDIARQTAQGMDYLHAKSIIHRDLKSNNIFLHEDLTVKIGDFGLATVKSRWSGSHQFEQLSGSILWMAPEVIRMQDKNPYSFQSDVYAFGIVLYELMTGQLPYSNINNRDQIIFMVGRGYLSPDLSKVRSNCPKAMKRLMAECLKKKRDERPLFPQILASIELLARSLPKI
# B10: SMARCD1 SWIFT domain (Homo sapiens); chain IKQKRKLRIFISNTFNPAKSDAEDGEGTVASWELRVEGRLLEDSALSKYDATKQKRKFSSFFKSLVIELDKDLYGPDNHLVEWHRTATTQETDGFQVKRPGDVNVRCTVLLMLDYQPPQFMPPEPIIINHVISVDPNDQKKTACYDIDVEVDDTL
# Sequence of UniProt P26039 (whole entry, looked up): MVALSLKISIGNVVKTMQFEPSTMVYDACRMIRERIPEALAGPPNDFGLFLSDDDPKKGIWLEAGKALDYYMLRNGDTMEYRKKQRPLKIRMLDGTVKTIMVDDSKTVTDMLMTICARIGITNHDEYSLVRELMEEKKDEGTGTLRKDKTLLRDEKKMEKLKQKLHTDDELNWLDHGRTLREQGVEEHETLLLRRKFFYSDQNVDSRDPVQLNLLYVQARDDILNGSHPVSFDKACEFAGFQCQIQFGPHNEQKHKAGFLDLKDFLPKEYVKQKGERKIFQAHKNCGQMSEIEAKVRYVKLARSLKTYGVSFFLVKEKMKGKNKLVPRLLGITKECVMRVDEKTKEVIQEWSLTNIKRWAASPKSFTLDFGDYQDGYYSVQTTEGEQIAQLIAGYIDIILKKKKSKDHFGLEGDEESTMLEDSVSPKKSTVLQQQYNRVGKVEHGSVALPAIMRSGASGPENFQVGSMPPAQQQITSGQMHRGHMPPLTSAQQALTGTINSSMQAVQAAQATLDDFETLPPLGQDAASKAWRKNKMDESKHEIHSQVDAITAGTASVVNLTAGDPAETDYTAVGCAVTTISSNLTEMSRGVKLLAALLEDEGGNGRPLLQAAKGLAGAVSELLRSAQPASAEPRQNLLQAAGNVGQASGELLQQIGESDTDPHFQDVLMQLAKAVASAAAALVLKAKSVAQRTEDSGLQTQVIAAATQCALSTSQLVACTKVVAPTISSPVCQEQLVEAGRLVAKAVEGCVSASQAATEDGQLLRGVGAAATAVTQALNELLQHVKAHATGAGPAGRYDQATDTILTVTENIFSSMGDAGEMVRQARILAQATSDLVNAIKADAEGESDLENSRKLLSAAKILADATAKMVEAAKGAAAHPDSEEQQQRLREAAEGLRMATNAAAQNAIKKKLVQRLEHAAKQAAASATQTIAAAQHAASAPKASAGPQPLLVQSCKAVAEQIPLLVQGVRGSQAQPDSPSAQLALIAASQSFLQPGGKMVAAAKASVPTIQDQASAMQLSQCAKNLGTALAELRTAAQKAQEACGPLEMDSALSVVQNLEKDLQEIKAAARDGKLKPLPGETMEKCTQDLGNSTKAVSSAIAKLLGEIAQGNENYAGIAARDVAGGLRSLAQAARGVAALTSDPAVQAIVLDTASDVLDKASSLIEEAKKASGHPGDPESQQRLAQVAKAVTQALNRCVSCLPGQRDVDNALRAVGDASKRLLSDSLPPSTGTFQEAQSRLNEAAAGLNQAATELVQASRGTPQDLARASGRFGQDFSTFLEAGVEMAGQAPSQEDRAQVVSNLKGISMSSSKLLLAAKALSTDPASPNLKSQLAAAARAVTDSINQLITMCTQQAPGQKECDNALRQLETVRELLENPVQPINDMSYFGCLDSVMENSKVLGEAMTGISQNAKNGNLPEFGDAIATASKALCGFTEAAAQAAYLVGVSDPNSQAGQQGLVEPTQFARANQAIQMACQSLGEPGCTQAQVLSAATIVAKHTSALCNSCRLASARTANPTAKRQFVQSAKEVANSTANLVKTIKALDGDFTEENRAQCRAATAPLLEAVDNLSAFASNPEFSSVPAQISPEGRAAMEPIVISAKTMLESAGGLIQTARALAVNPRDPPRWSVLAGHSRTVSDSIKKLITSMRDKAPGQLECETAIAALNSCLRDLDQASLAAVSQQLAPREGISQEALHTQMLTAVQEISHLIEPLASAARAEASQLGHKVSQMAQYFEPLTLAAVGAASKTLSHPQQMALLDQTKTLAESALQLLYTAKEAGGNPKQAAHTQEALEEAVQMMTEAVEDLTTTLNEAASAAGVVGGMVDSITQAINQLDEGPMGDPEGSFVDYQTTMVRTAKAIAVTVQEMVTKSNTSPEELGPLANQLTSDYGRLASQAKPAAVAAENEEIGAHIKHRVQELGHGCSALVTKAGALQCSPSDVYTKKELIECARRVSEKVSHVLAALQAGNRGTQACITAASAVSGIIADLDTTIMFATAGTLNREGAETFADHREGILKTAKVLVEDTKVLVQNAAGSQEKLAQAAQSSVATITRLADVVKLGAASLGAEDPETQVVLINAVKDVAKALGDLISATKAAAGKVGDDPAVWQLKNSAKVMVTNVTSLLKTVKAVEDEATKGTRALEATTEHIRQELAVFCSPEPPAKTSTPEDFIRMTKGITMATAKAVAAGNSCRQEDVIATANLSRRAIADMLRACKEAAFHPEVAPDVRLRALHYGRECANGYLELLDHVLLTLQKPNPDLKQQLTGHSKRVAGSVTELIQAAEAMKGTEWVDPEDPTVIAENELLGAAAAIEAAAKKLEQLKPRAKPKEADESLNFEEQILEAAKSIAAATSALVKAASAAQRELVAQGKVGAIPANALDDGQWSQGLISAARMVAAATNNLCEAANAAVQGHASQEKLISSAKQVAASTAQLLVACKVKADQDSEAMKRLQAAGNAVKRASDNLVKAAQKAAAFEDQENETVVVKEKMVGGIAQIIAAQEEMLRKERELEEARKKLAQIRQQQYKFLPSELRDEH
# Sequence of UniProt Q64663 (whole entry, unmodified, looked up): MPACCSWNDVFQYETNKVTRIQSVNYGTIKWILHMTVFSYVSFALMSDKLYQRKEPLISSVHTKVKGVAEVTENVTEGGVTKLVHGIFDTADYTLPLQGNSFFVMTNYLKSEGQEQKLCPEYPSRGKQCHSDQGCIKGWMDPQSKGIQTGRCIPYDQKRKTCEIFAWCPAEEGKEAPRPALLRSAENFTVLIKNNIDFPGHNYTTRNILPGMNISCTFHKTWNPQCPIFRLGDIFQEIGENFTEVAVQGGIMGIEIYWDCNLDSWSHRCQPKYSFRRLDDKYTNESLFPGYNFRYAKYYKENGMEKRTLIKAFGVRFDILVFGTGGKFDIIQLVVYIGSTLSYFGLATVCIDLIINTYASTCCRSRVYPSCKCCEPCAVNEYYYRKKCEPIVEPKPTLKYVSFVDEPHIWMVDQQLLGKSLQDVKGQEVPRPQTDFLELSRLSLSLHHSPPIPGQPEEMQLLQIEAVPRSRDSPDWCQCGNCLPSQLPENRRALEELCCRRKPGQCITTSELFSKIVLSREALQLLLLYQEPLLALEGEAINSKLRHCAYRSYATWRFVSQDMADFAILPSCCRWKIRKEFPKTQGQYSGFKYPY
# Sequence of UniProt P25963 (whole entry, looked up): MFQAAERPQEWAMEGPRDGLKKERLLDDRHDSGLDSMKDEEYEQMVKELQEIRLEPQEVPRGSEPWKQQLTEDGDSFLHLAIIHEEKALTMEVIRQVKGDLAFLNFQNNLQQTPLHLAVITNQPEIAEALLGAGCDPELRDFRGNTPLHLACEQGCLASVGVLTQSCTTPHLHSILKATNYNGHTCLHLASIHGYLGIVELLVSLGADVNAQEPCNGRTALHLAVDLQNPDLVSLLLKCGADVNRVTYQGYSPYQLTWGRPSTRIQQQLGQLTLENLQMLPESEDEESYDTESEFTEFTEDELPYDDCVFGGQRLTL
# Sequence of UniProt P38646 (whole entry, unmodified, looked up): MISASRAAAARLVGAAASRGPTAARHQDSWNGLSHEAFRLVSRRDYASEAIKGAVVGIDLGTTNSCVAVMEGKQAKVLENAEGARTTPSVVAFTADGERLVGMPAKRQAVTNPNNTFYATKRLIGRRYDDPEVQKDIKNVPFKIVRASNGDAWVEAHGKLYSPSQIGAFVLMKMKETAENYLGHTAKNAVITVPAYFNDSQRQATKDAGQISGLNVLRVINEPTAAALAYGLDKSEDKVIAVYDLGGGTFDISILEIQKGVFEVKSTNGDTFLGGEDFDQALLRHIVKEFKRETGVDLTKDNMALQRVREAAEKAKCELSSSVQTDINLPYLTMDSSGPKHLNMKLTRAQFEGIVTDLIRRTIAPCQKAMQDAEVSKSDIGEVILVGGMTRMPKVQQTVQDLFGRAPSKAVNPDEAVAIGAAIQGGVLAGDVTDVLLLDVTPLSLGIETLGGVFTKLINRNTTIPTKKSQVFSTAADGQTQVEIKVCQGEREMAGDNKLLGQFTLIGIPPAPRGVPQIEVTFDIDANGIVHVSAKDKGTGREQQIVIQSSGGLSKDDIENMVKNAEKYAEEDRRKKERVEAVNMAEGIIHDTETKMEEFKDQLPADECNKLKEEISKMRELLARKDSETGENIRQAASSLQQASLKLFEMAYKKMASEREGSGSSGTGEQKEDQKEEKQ
Substance,target or system,assay,test system,setting,how to read,quantity,result
BRCA1 coiled-coil domain M1400T (Homo sapiens),"PALB2 1-56 (Homo sapiens, UniProt Q86YC2)",ITC,,,,Kd,20 µM
B1 (IGSF10 2234-2623),"RET 29-635 (Homo sapiens, UniProt P07949)",ITC,,,,Kd,0.25 µM
GSGSEVLKKCCYSLHPIP (designed peptide),"ERBB2 23-652 (Homo sapiens, UniProt P04626)",ELISA,peptide,,,Kd,7.6 ± 1.5 µM
"INVRKRNVESGEEELASKLD (PGAM5 71-90; N-acetyl, C-terminal amide)","KEAP1 321-609 (Homo sapiens, UniProt Q14145)",ITC,peptide,,,Kd,0.18 µM
B2 (SOX11 HMG box),SAMHD1 fragment (Homo sapiens),microscale thermophoresis,,,,Kd,3.2 µM
PUX6 fragment (Arabidopsis thaliana),CDC48A,ITC,,10 °C,,Kd,11.2 ± 1.1 µM
B3 (Cacna1c 1647-1777),"Jph2 1-440 S165N (Mus musculus, UniProt Q9ET78)",ITC,,,,Kd,6.82 µM
SCN2A fragment I1912A (Homo sapiens) (sequence not shown),CALM1,fluorescence titration,,"pH 7.4, 22 °C, together with: calcium",,Kd,0.391 µM
GCVRLHESCLGQQVPCCDPAATCYCYGRGDNDLRCYCR (designed binder),ITGAV/ITGB3 K562 cells,flow cytometry,"designed binder, U87MG",,,Kd,0.0024 µM
B4 (C1S 438-688 S632A),"SERPING1 111-500 H334A/Q338A (Homo sapiens, UniProt P05155)",SPR,,together with: Ca2+,,Kd,7.3 µM
BzATP,"P2X purinoceptor 7 (P2rx7, Rattus norvegicus, UniProt Q64663, I214A/Q143A/R125A)","ion current, agonist, two-electrode voltage clamp",Xenopus oocytes,3.7 µM,,normalized current,0
Peginesatide,UT7/EPO,"tyrosine phosphorylation, LC-MS/MS phosphoproteomics, GluC, measured: ALDOA tyrosine 363",,"10 nM, 15 min, together with: 10 U/mL EPO",relative to: vehicle,phosphorylation level,3.3 fold
"GGCKIFGSLAFLKCCYSL (HER2 hybrid peptide 369-377 (Homo sapiens, UniProt P04626); 99mTc-labelled)","ERBB2 (Homo sapiens, UniProt P04626)",radioligand binding,"peptide, SKBR3",,,Kd,< 0.05 µM
"PSPFTPPPPQTPSP (SOS1 proline-rich peptide, 1253-1266)","GRB2 1-58 (Homo sapiens, UniProt P62993)",NMR titration,peptide,,,Kd,580 µM
ARTKQTARKSTGGY (H3 1-13; K4me3),"T1, BPTF PHD domain Y23M",ITC,peptide,,,Kd,7.97 µM and 6.91 µM and 7.66 µM
"LPDTDDRHRIEEKRKRTYETFKSIMKKSPFNGP (Rela 289-321 (Mus musculus, UniProt Q04207); sequence looked up)","NFKBIA 67-206 (Homo sapiens, UniProt P25963)",ITC,peptide,NaCl 150 mM,,Kd,1.16 ± 0.013 µM
B5 (PUX6),CDC48A,ITC,,10 °C,,Kd,8.7 ± 0.9 µM
ENAH EVH1 domain (Homo sapiens),FLNC peptide (Homo sapiens),BLI,,,,Kd,> 150 µM
"Ybx1 (Mus musculus, UniProt P62960)",Purb P223L (Mus musculus),ELISA,,,,Kd,0.0248 ± 0.0044 µM
CALLLSAPRR (GOT2 (Gallus gallus); fluorescein label),"HSPA9 47-584 (Homo sapiens, UniProt P38646)",FP,peptide,,,Kd,19.5 µM
SCN2A IQ region R1902C (Homo sapiens) (sequence not shown),CALM1,fluorescence titration,,together with: CaCl2,,Kd,0.0216 µM
NUMB PTB domain,"VSIR 232-258 peptide, N-terminal 5-FAM (Homo sapiens)",fluorescence polarisation,,,,Kd,5.5 µM
colistin,Pseudomonas aeruginosa,,clinical isolate RKI 598/16,,,MIC,1 µg/mL
"KLLITIHDRKEFAKFEKEKARAKWDTANNPLYKEATSTFTNITYRGT (ITGB3 742-788 E732K/R734K (Homo sapiens, UniProt P05106); sequence looked up)","Tln1 309-405 (Mus musculus, UniProt P26039)",NMR titration,,,,Kd,748 µM
"STAU1 (Homo sapiens, UniProt O95793)","DDX50 (Homo sapiens, UniProt Q9BQ39)",MST,,,,Kd,0.446 µM
ptsH fragment (Escherichia coli) (sequence not shown),ptsI fragment (Escherichia coli),NMR titration,,with BSA,,Kd,65 ± 4.7 µM
B6 (EIF2AK3 105-403),"HSPA5 28-654 (Homo sapiens, UniProt P11021)",MST,,,,Kd,2.6 ± 0.5 µM
CDH2 extracellular domain (Homo sapiens),"FGB residues 15-66, dimer (Homo sapiens)",ELISA,,,,Kd,0.0133 µM
B7 (IgG),IL13 fragment (Homo sapiens),SPR,antibody,,,Kd,6.3e-05 µM
"NEDIDQMFSTLLGEMDLLTQS (RIAM talin-binding site peptide 5-25 (Mus musculus, UniProt Q8R5A3); FITC label; sequence looked up)","Tln1 1-405 (Mus musculus, UniProt P26039)",fluorescence polarization,peptide,together with: FITC-labeled peptide 20 nM,,Kd,86 µM
"KLLITIHDRKEFAKFEEERANAKWDTANNPLYKEATSTFTNITYRGT (ITGB3 742-788 R736N (Homo sapiens, UniProt P05106); sequence looked up)","Tln1 309-405 (Mus musculus, UniProt P26039)",NMR titration,,,,Kd,279 µM
"FGA (Homo sapiens, UniProt P02671)","KIF15 (Homo sapiens, UniProt Q9NS87)",cross-linking MS,,together with: DSSO,,cross-linked residues,K238 to K559
LKEKHKILHRLLQDSSSPV (NCOA2 peptide; N-terminal 5-FAM),"PPARG 202-477 (Homo sapiens, UniProt P37231-2)",FP,peptide,,,Kd,18 µM and 27.6 µM
B8 (CFH domains 1108-1231 L1189F),"C3 C3dg 955-1303 (Homo sapiens, UniProt P01024)",SPR,,,,Kd,2.1 ± 0.6 µM
B9 (BRAF 442-724),"MAP2K1 (Homo sapiens, UniProt Q02750)",BLI,,,,Kd,0.481 ± 0.0377 µM
B10 (SMARCD1 SWIFT domain),"FOS FLAG-tagged, NHS Red dye labeled (UniProt P01100)",MST,,,,Kd,4.71 ± 1.5 µM
